Measured values gathered from unrelated publications.
Parts stem from different laboratories: compare values within a part only.

Block 1 — method: competition protein-binding microarray; form: double-stranded DNA, one strand shown; sample: in vitro; tested at: 2 µM; together with: Pho4 competitor, 0.05 µM; reading: higher = stronger binding; shared flanks, not repeated: … GTCTTGATTCGCTTGACGCTGCTG
Target: Centromere-binding protein 1, full length, His-tagged (CBF1, Saccharomyces cerevisiae, UniProt P17106, residues 1-351)
UniProt P17106, sequence (whole entry, looked up): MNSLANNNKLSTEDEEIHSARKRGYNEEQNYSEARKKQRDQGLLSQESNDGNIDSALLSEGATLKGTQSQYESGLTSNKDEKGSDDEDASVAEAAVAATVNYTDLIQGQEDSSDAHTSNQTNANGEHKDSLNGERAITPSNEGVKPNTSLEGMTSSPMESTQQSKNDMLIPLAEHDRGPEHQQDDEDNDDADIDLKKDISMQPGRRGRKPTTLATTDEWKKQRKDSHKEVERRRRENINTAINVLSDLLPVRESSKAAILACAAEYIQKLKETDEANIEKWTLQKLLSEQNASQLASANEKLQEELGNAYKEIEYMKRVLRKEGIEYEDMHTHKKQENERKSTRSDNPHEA
Setting: whole 60-bp probe, lowest competitor level
With `CGGGGTTAAGTTTGCGTGGTGGGTGGCTTGCAGCAG` the fluorescence intensity was 64.9 a.u.
`CATACCCAACCTTGATTTGTGGGTGAAGATATTTGT` has a fluorescence intensity of 72.8 a.u.
With `TAAGCAAATGAACCGCACATGTAGGCCGCAAATCTT` the fluorescence intensity was 96 a.u.
With `CTTCTGTAAATTTGCAGGGTGGGTGGACGCGCCCCG` the fluorescence intensity was 84.7 a.u.
For `CCAAGTGGATATTTTCACGTTTGCGCGCTGCGTCTT`, the fluorescence intensity was 85.8 a.u.
The fluorescence intensity of `ATATCCCATCAACTACACGTGCCAGACCAGTTAAAG` is reported as 1170 a.u.
With `TCATAGTTGACTGCCCATGTGGCTAATCTCAGTCTC` the fluorescence intensity was 82.1 a.u.

Block 2 — method: protein-binding microarray; form: double-stranded DNA, one strand shown; sample: in vitro; tested at: not given; reading: higher = stronger binding
Target: Max-binding protein MNT, bHLH-zipper, MAX partner unstated (MNT, Homo sapiens, UniProt Q99583, residues 220-300)
Setting: k-mer, scored over probes, only values ≥0.25
Construct (chain): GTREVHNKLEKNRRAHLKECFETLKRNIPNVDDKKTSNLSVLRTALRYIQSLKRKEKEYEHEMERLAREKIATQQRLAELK
`GCATGTGA` gave an E-score of 0.45.
With `CGCCCGCC` the E-score was 0.262.
`CGTGCAGC` gave an E-score of 0.385.

Block 3 — method: protein binding microarray; form: double-stranded DNA, one strand shown; sample: in vitro; tested at: not given; relative to: not given; reading: higher = stronger binding
Target: Histone acetyltransferase KAT6A, both winged helices, GST fusion (KAT6A, Homo sapiens, UniProt Q92794, residues 1-181)
Setting: 8-mer, flanks averaged, mean of 2 arrays, mostly near background
Target sequence (chain): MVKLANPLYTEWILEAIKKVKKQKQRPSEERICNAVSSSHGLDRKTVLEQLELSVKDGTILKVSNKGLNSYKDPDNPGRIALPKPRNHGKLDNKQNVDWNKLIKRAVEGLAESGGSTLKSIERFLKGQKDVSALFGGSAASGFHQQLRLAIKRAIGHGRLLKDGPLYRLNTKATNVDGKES
`CGTCGAGC` gave an E-score of 0.0823.
`CGGCATAG` gave an E-score of 0.203.
For `GTTGTGAA`, the E-score was -0.114.
The E-score of `CTCCCTGC` is reported as -0.125.
`ATAAAGTG` has an E-score of -0.162.
The E-score of `GGTACTAC` is reported as -0.0126.

Mixed results
`PhoQ, residues 284 288 289 292 302 303 GLASVI` gave a fold induction of 23.7 (PhoP, residues 12 14 15 18 19 LQHIR (Escherichia coli, UniProt P23836); Sort-seq, measured: YFP reporter; E. coli; PhoQ-PhoP variant library, together with: 10 µM Mg2+; relative to: high Mg2+ state, higher = stronger signaling).

For quick reference, copied from above (block 1):
With `TAAGCAAATGAACCGCACATGTAGGCCGCAAATCTT` the fluorescence intensity was 96 a.u.
With `CTTCTGTAAATTTGCAGGGTGGGTGGACGCGCCCCG` the fluorescence intensity was 84.7 a.u.
For `CCAAGTGGATATTTTCACGTTTGCGCGCTGCGTCTT`, the fluorescence intensity was 85.8 a.u.
